Experimental data of several laboratories.
Numbered parts are unrelated; each lists some results of a single study. “And” joins repeats or separate records; there may be more than shown.

Series 1
Cell line: HuT78
Tested at: 2 µM
Time: 48 h
Baseline: untreated
SMILES | viability
NC(=O)Nc1sc(-c2ccc(F)cc2)cc1C(N)=O | 77.7%
N#CC(C#N)=Cc1ccc(O)c(O)c1 | 105%
C/C(O)=C(\C#N)C(=O)Nc1cc(Br)ccc1Br | 116%
CC(C)(C)c1cc(C=C(C#N)C#N)cc(C(C)(C)C)c1O | 73%

Series 2
Organism: Sarcocystis neurona
Effect on: parasite growth
Tested at: 10 µM
Time: 96 h
Setting: second screen
Baseline: untreated
Structure (SMILES) | log2 fold change
CN1CCN(CC/C=C2/c3ccccc3Sc3ccc(S(=O)(=O)N(C)C)cc32)CC1 | -0.87
Oc1cc(Cl)ccc1Oc1ccc(Cl)cc1Cl | -0.33
c1ccc(Cn2ccnc2)cc1 | 0.25
C[C@H]1CCC[C@H](O)CCCCCc2cc(O)cc(O)c2C(=O)O1 | 0.51
O=c1c(-c2ccccc2)c1-c1ccccc1 | -2.77

Series 3
Target: DNA polymerase theta, ATPase domain (POLQ, Homo sapiens, UniProt O75417)
Sequence of UniProt O75417 (whole entry, unmodified, looked up): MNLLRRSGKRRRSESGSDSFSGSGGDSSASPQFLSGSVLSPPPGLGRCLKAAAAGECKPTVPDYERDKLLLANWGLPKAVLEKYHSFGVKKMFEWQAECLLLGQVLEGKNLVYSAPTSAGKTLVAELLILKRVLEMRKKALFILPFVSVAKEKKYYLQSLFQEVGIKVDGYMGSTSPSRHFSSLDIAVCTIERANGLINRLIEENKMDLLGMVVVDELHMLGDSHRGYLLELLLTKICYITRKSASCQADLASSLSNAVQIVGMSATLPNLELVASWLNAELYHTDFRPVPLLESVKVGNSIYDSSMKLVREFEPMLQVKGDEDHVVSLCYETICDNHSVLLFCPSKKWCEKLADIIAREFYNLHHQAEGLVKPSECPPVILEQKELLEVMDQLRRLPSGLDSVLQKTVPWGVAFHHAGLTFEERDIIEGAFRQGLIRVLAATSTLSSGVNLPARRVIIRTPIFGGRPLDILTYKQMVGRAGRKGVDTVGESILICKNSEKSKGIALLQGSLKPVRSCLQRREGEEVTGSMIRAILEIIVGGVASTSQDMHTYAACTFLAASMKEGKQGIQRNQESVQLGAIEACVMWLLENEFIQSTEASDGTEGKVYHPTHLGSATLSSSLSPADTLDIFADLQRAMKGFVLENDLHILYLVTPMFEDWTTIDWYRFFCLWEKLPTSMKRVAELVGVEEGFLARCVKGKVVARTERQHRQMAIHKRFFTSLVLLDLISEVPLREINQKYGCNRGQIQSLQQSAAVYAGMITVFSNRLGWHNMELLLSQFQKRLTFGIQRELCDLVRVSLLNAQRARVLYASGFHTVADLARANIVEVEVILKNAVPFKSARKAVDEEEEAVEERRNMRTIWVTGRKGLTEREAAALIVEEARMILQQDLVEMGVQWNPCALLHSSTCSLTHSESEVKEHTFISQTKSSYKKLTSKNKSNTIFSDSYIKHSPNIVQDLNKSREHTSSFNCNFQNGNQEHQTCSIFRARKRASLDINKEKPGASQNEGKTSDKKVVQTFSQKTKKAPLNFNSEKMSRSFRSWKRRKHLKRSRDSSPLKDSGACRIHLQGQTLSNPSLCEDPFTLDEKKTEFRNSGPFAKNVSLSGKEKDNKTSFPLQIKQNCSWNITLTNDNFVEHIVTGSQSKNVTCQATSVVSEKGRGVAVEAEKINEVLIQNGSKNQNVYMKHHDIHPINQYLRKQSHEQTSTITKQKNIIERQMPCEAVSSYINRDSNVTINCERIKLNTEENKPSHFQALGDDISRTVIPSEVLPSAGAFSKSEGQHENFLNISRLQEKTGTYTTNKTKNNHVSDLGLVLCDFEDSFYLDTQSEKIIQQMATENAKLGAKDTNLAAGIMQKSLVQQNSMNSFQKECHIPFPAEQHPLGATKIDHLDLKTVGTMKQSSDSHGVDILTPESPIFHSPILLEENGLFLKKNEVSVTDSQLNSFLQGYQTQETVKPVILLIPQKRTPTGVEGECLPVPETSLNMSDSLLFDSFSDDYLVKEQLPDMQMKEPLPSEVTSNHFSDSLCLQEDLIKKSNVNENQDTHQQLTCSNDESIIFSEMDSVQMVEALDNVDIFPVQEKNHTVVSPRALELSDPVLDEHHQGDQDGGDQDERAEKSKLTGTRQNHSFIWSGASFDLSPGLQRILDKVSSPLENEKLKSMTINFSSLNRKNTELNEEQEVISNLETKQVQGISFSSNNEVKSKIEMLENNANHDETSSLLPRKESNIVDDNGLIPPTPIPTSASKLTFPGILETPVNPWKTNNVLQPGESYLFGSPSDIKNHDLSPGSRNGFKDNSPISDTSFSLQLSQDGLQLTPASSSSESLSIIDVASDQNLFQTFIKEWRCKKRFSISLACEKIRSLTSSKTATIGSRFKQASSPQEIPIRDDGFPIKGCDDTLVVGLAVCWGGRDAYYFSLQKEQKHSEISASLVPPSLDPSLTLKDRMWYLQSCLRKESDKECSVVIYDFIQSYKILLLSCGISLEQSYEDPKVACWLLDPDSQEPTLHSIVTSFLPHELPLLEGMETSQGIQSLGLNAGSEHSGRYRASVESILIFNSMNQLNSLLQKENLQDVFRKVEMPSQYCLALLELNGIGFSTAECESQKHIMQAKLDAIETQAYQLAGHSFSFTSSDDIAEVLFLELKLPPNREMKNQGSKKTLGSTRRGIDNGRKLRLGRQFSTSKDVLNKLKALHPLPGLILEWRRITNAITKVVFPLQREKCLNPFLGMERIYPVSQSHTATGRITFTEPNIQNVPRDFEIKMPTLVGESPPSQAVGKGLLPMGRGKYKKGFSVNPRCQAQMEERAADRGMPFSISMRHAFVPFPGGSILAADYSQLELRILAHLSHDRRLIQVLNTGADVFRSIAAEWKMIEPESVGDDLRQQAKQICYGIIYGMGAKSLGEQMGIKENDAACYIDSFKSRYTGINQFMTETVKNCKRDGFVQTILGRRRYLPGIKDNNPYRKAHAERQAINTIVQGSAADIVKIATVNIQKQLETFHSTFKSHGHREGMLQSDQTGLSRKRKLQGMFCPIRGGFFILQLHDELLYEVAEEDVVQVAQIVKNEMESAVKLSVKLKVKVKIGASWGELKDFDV
Effect on: enzyme activity
Mode: inhibitor
Tested at: 77 µM
Baseline: untreated
Structure (SMILES) | remaining activity
Oc1ccc2c3c1O[C@H]1c4oc5ccccc5c4C[C@@]4(O)[C@@H](C2)N(CC2CC2)CC[C@]314 | 102%
C=C1[C@@H]2CC[C@H]3[C@]4(C)C[C@H](O[C@H]5O[C@H](CO)[C@@H](OS(=O)(=O)O)[C@H](OS(=O)(=O)O)[C@H]5OC(=O)CC(C)C)C[C@@H](C(=O)O)[C@H]4CC[C@]3(C2)[C@H]1O | 109%
CCC1=C[C@@H]2CN3CCc4c([nH]c5ccccc45)[C@@](C(=O)OC)(C2)[C@@H]13 | 99.2% and 87.5%
Clc1ccc(C(OCCN2CCCCC2)c2ccccc2)cc1 (stereo not shown) | 94.8%
CN1[C@@H]2CC[C@H]1C[C@@H](OC(=O)c1cc(Cl)cc(Cl)c1)C2 | 98.9%
CCN1C[C@]2(OC(=O)c3ccccc3NC(C)=O)CC[C@H](OC)[C@]34C1[C@H](C[C@H]23)[C@@]1(O)C[C@H](OC)[C@H]2C[C@@H]4[C@]1(O)[C@H]2OC | 94.4%
Cn1c(CCCC(=O)O)nc2cc(N(CCCl)CCCl)ccc21 | 91%
C[C@@H]1CC[C@H]2[C@@H](C)C(=O)O[C@@H]3O[C@@]4(C)CC[C@@H]1[C@]32OO4 | 110% and 102%
NCC[C@H](O)C(=O)N[C@@H]1C[C@H](N)[C@@H](O[C@H]2O[C@H](CN)[C@@H](O)[C@H](O)[C@H]2N)[C@H](O[C@@H]2O[C@H](CO)[C@@H](O)[C@H]2O)[C@H]1O | 95.6%

Series 4
SMILES: COc1cc(C(=O)OCCCN2CCCN(CCCOC(=O)c3cc(OC)c(OC)c(OC)c3)CC2)cc(OC)c1OC
Species: CD-1 mice, male
Route: subcutaneous
Dose: 30 mg/kg
matrix | time | concentration [ng/mL]
spinal cord | 0.5 h | 230
spinal cord | 1.5 h | 313
spinal cord | 0.1667 h | 104
brain | 8 h | 0.667
spinal cord | 8 h | 0.93
brain | 4.5 h | 24.2
spinal cord | 4.5 h | 18.2
brain | 1.5 h | 139

Series 5
Cell line: HEK-293T
Effect on: pseudovirus infection
Method: FDA-approved drug library counter-screen
Organism: VSV pseudotyped with VSV-G
Tested at: 10 µM
Time: 16 h
Baseline: vehicle-treated
Structure (SMILES) | GFP-positive cells [%]
CC1(C)O[C@@H]2[C@@H](CO[C@@]3(COS(N)(=O)=O)OC(C)(C)O[C@@H]23)O1 | 94.6
Cc1ccc(Nc2nccc(N(C)c3ccc4c(C)n(C)nc4c3)n2)cc1S(N)(=O)=O | 69.2
C[C@H](CCC(=O)NCCS(=O)(=O)O)[C@H]1CC[C@H]2[C@@H]3[C@@H](O)C[C@@H]4C[C@H](O)CC[C@]4(C)[C@H]3CC[C@]12C | 92.4
CC(=O)OCC(=O)[C@H]1CC[C@H]2[C@@H]3CCC4=CC(=O)CC[C@]4(C)[C@H]3CC[C@]12C | 100
CCc1nc(N)nc(N)c1-c1ccc(Cl)cc1 | 97
Nc1ncnc2c1ncn2[C@@H]1O[C@H](CO)[C@@H](O)[C@H]1O | 94
Nc1cc(N2CCCCC2)nc(N)[n+]1[O-] | 118
Nc1nc2c(ncn2COCCO)c(=O)[nH]1 | 95
COc1ccc([C@@H]2Sc3ccccc3N(CCN(C)C)C(=O)[C@@H]2OC(C)=O)cc1 | 108
CC(O)(CS(=O)(=O)c1ccc(F)cc1)C(=O)Nc1ccc(C#N)c(C(F)(F)F)c1 (stereo not shown) | 126
O=C1C(O)=C([C@H]2CC[C@H](c3ccc(Cl)cc3)CC2)C(=O)c2ccccc21 | 2.12
N[C@@H](CC(=O)N1CCn2c(nnc2C(F)(F)F)C1)Cc1cc(F)c(F)cc1F | 85
COc1cc(C(C)=O)ccc1OCCCN1CCC(c2noc3cc(F)ccc23)CC1 | 87.2
CCCNC(C)C(=O)Nc1ccccc1C (stereo not shown) | 103
O=C1O[C@H](CO)[C@@H](O)[C@H](O)[C@H]1O | 76.6
CC[C@]1(O)C[C@@H]2CN(CCc3c([nH]c4ccccc34)[C@@](C(=O)OC)(c3cc4c(cc3OC)N(C)[C@H]3[C@@](O)(C(=O)OC)[C@H](OC(C)=O)[C@]5(CC)C=CCN6CC[C@]43[C@@H]65)C2)C1 | 3.61
Nc1ccn([C@@H]2CS[C@H](CO)O2)c(=O)n1 | 101
COc1cc(C(=O)NS(=O)(=O)c2ccccc2C)ccc1Cc1cn(C)c2ccc(NC(=O)OC3CCCC3)cc12 | 117
CN(C)CCc1c[nH]c2ccc(Cn3cncn3)cc12 | 109
CCN[C@H]1CN(CCCOC)S(=O)(=O)c2sc(S(N)(=O)=O)cc21 | 112
O=C1OC2(c3ccc(O)cc3Oc3cc(O)ccc32)c2ccccc21 | 111
CC12CC3CC(C)(C1)CC(N)(C3)C2 | 110
N#C[C@@H]1C[C@@H]2C[C@@H]2N1C(=O)[C@@H](N)C12CC3CC(CC(O)(C3)C1)C2 | 109
Cc1ncc(CO)c(CO)c1O | 95.6
Cc1cc(C(C)(C)C)c(O)c(C)c1CC1=NCCN1 | 113

Series 6
Compound: c1ccc(Oc2ccc(Nc3c4c(nc5ccccc35)CCC4)cc2)cc1
Organism: Leishmania donovani
effect on | strain | matrix | tested at | time | setting | inhibition
parasite growth | DD8 amphotericin B-resistant | intracellular amastigotes | 0.8 µM | – | – | 52% and 54% and 59% and 58%
parasite killing | DD8 | promastigotes | 0.016 µM | 24 h | – | 7% and 5%
parasite growth | DD8 amphotericin B-resistant | promastigotes | 16.66 µM | – | – | 94% and 81% and 96% and 98% and 99%
parasite growth | – | – | 8 µM | – | intracellular, amastigote | 74%
parasite growth | DD8 amphotericin B-resistant | promastigotes | 33.33 µM | – | – | 100% and 99%
parasite growth | – | – | 66.66 µM | – | promastigote | 99%
parasite growth | DD8 amphotericin B-resistant | intracellular amastigotes | 0.008 µM | – | – | 1% and 2%

Excerpt of the above (series 4):
matrix | time | concentration [ng/mL]
spinal cord | 0.5 h | 230
spinal cord | 8 h | 0.93
spinal cord | 0.1667 h | 104
brain | 4.5 h | 24.2
brain | 8 h | 0.667
spinal cord | 1.5 h | 313
